# Measurements gathered from unrelated publications.
# Compare with care: the assays were run in different laboratories.
# Cell line: T47D
Compound,assay,setting,how to read,quantity,value
CCCn1c(-c2cccnc2)nc(-c2ccc(C)cc2)c1-c1ccc(C)cc1,"cell growth or viability, SRB",24 h,,IC50,> 100 µM
CC1=CCC23OC2(C)CCC2C(CN(C)C)C(=O)OC2C13.Cl (stereo not shown),"cell growth or viability, SRB",8.3 µM,,inhibition,58.9%
CC(=O)OC[C@H]1O[C@@H](Sc2sc(C(=O)c3ccc(Br)cc3)c(N)c2-c2nc3ccccc3s2)[C@H](OC(C)=O)[C@@H](OC(C)=O)[C@H]1OC(C)=O,SRB,"10 µM, 48 h",relative to: untreated,growth,67.4%
COc1ccc(C=C2SC(N3N=C(c4cccs4)CC3c3ccc(F)cc3)=NC2=O)cc1 (stereo not shown),annexin V-FITC/PI flow cytometry,concentration not given,,total apoptotic cells,25.2%
CC(Cc1ccc(Cl)cc1)=C(c1ccc(Cl)cc1)c1ccc(OCCN(C)C)cc1,"cell growth or viability, SRB",,,GI50,3.83 µM
CC(=O)OC[C@H]1O[C@@H](Sc2sc(C(=O)c3ccc(C)cc3)c(N)c2-c2nc3ccccc3s2)[C@H](OC(C)=O)[C@@H](OC(C)=O)[C@H]1OC(C)=O,SRB,"10 µM, 48 h",relative to: untreated,growth,56.2%
COc1ccc2c(c1)/C(=N\Nc1nnc3n1N=C(c1ccccc1)CS3)C(=O)N2,"cell growth or viability, SRB",10 µM,,inhibition,47%
COc1ccc(C2=NN(C3=NC(=O)C(=Cc4ccc(O)cc4)S3)C(c3ccc(F)cc3)C2)cc1 (stereo not shown),annexin V-FITC/PI flow cytometry,concentration not given,,late apoptotic cells,27.2%
CC(=C(c1ccc(O)cc1)c1ccc(Cl)cc1)c1ccc(Cl)cc1,"cell growth or viability, SRB",,,GI50,0.89 µM
CCCCCCCCn1c(-c2cccnc2)nc(-c2ccc(C)cc2)c1-c1ccc(C)cc1,"cell growth or viability, SRB",48 h,,IC50,97.2 µM
CC/C=C\C/C=C\C/C=C\C/C=C\C/C=C\C/C=C\CCC(=O)Nc1ccn(C2OC(CO)C(O)C2(F)F)c(=O)n1 (stereo not shown),"cell growth or viability, SRB",,,GI50,0.0996 µM
Cc1ccc(-c2nc(-c3cccnc3)[nH]c2-c2ccc(C)cc2)cc1,"cell growth or viability, SRB",48 h,,IC50,> 100 µM
Cc1ccc(C2=Nn3c(N/N=C4/C(=O)Nc5ccc(Br)cc54)nnc3SC2)cc1,"cell growth or viability, SRB",10 µM,,inhibition,12%

# Some of these lines once more:
Compound,assay,setting,how to read,quantity,value
CC/C=C\C/C=C\C/C=C\C/C=C\C/C=C\C/C=C\CCC(=O)Nc1ccn(C2OC(CO)C(O)C2(F)F)c(=O)n1 (stereo not shown),"cell growth or viability, SRB",,,GI50,0.0996 µM
